Published values pooled from the literature.
Each numbered part is a random draw from the data of one study; scales do not carry over between parts. Substitutions count along the parent as printed.

Block 1 — technique: protein binding microarray; molecule type: double-stranded DNA, one strand shown; matrix: in vitro; concentration: not given; reference: not given; reading: higher = stronger binding
Target: Histone acetyltransferase KAT6A, both winged helices, GST fusion (KAT6A, Homo sapiens, UniProt Q92794, residues 1-181)
Notes: 8-mer, flanks averaged, mean of 2 arrays, mostly near background
Construct (chain): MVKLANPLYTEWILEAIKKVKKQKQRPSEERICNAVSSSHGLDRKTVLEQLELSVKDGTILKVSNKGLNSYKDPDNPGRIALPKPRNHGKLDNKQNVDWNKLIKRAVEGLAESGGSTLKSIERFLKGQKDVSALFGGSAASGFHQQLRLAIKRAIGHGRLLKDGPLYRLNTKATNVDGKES
Oligonucleotide	E-score
TCGATCCA	-0.0184
GGGATTTA	0.107
CTCATCCC	-0.109
AACAGGCT	-0.0965
AACTGCGG	0.195
ACCTGAGC	0.0348
GCGCCTGA	0.165
TAGCCCCA	-0.15

Block 2 — target: ATF2, bZIP domain (human); technique: DHFR protein complementation; matrix: yeast; reference: wild-type JUN-FOS pair; reading: higher = stronger binding
Notes: single substitutions, most at no-binding floor
Starting sequence: JUN, bZIP domain (human); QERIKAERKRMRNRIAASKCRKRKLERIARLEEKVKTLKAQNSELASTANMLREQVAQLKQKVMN; partner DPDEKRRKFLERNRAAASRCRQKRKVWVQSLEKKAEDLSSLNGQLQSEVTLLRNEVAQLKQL
Variant	binding fitness
L52K	-1.33 natural log
N42D	-1.28 natural log
L31Q	-1.58 natural log
Q55Y	-1.41 natural log
I28S	-1.49 natural log
L38F	-1.38 natural log
K34L	-1.29 natural log
R30N	-1.32 natural log

Block 3 — technique: RNA Bind-n-Seq; molecule type: RNA; matrix: in vitro; concentration: 20 nM; notes: 6-mer, flanks averaged, single round; added: 150 mM KCl; reference: input library; reading: higher = stronger binding
Target: TAR DNA-binding protein 43, full length, His tag (TARDBP, Homo sapiens, UniProt Q13148, residues 1-414)
Oligonucleotide	6-mer enrichment (R)
GAAGUG	1.61
GCCAAU	0.725
CACGCG	1
GGGGGU	7.61
AGGAUC	0.739
UACUUA	0.575
ACUUUU	0.66
GGAUGU	1.49

Further values, each from its own experiment
SMILES	test system	setting	measurement	value
CC(C)Cn1cc(NC(=O)NC2CCN(Cc3ccccc3)CC2)c2ccccc2c1=O	mouse, microsomes or S9	2 µM, 0.5 h	remaining compound	59%

Repeated from above (block 3):
Oligonucleotide	6-mer enrichment (R)
GGGGGU	7.61
AGGAUC	0.739
